Published values pooled from the literature.
± marks the error that the study gave.
Oprd1: Delta-type opioid receptor (Oprd1, Rattus norvegicus, UniProt P33533)
UniProt P33533, sequence (whole entry, looked up): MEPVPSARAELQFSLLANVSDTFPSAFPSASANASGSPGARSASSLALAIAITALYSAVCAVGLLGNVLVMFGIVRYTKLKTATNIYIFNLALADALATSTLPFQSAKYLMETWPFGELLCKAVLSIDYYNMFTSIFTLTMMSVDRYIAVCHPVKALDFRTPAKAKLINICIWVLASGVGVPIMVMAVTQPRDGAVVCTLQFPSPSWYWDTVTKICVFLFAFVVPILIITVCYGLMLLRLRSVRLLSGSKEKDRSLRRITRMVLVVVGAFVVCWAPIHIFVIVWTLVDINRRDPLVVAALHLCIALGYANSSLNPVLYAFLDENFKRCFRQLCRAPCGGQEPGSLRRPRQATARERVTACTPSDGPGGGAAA
HTR1A: 5-hydroxytryptamine receptor 1A (HTR1A, Homo sapiens, UniProt P08908)
UniProt P08908, sequence (whole entry, looked up): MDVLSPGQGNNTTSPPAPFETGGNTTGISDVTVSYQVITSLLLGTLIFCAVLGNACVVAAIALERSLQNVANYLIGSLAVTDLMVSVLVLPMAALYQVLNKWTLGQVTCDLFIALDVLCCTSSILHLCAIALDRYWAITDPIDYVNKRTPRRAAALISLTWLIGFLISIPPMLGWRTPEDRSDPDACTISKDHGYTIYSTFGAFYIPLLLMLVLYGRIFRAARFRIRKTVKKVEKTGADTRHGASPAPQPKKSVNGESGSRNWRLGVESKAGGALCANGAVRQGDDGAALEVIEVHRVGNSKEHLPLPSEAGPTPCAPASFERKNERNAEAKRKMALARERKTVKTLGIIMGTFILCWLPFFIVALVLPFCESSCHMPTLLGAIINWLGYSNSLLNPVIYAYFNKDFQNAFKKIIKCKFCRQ
UniProt P08588, sequence (whole entry, looked up): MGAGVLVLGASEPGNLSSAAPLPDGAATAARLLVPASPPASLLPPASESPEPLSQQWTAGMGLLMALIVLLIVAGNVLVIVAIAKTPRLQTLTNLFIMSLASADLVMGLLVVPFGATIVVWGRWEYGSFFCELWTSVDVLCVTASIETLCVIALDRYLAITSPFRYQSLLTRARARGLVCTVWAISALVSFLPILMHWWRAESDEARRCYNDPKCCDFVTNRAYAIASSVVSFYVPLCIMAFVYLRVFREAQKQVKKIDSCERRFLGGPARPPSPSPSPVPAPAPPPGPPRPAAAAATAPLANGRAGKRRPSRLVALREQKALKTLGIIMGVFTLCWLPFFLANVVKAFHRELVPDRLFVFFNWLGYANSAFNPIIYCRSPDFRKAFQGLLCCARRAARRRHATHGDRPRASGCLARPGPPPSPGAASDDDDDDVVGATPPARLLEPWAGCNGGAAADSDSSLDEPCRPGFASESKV
UniProt P50406, sequence (whole entry, looked up): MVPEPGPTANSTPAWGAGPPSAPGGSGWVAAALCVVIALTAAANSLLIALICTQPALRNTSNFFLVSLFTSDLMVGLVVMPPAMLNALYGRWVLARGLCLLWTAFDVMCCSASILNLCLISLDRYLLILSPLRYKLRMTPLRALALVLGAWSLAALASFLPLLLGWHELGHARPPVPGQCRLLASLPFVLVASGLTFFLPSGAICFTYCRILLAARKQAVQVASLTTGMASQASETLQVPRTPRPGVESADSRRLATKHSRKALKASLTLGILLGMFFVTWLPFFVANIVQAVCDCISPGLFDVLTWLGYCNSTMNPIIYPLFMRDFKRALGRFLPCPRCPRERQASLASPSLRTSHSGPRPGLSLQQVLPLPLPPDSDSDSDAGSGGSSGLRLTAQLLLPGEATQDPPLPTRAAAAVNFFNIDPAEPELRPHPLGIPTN
UniProt P52564, sequence (whole entry, looked up): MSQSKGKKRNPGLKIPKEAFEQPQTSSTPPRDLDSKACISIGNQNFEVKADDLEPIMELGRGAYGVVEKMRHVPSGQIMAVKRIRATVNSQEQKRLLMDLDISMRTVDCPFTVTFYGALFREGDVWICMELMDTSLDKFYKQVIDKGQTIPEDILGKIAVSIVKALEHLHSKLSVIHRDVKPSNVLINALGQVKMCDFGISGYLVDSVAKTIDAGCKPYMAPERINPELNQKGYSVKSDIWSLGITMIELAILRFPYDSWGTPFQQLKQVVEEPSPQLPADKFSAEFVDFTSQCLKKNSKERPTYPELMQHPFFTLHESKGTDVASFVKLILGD

Structure (SMILES) | target or system | test | system | conditions | how to read | endpoint | result
N=C(N)NCCC[C@@H]1NC(=O)[C@@H](Cc2ccc(O)cc2)NC(=O)[C@@H](CCCCN)NC(=O)[C@@H](Cc2ccccc2)NC1=O | Oprd1 | ligand displacement, radioligand | – | cell membranes | – | Ki | 2490 nM
Cc1cc(O)cc(C)c1C[C@H](N)C(=O)N[C@@H]1C/C=C\CC[C@@H](C(N)=O)NC(=O)[C@H](Cc2ccccc2)NC(=O)[C@H](Cc2ccccc2)NC1=O | Oprd1 | ligand displacement, radioligand | – | cell membranes | – | Ki | 0.491 nM
C[C@@H](Cc1ccsc1)NC(=O)NC[C@H](Cc1ccc(O)cc1)N(C)C | ADRB1 (Homo sapiens, UniProt P08588) | cell-free assay | – | – | – | Ki | > 50000 nM
O=C1c2ccccc2CCCN1CCCCN1CCN(c2cccc(Cl)c2Cl)CC1 | HTR1A | ligand displacement, radioligand | – | – | – | Ki | 1.3 nM
CC[C@@H]1NC(=O)[C@H](CCCNC(=N)N)NC(=O)[C@H](NC(=O)C(C)C)CCNC(=O)c2cc(F)c(c(F)c2)N=Nc2c(F)cc(cc2F)C(=O)NCCNC(=O)[C@@H](Cc2ccccc2)NC1=O | WDR5 (Homo sapiens, UniProt P61964) | binding, inhibitor, competitive fluorescence polarization | – | cis isomer, 520 nm photostationary state | – | Ki | 8 nM
CC(C)(C)C(=O)OCOP(=O)(OCOC(=O)C(C)(C)C)C1CCCN(O)C1=O (stereo not drawn) | MOLT-4 | – | – | – | – | TGI | 2690 nM
COc1ccccc1-c1n[nH]c2nc(NC3CCN(C(=O)Cc4ccc(F)cc4F)CC3)ncc12 | – | bead binding, competition bead pull-down, measured: LINJ.28.3140 | Leishmania donovani axenic amastigote extract | 10 µM | baseline: vehicle | relative abundance | 0.99
NC(=O)[C@@H]1CC/C=C/C[C@@H](NC(=O)[C@@H](N)Cc2ccc(O)cc2)C(=O)N[C@@H](Cc2ccccc2)C(=O)N[C@@H](Cc2ccccc2)C(=O)N1 | Oprd1 | ligand displacement, radioligand | – | cell membranes | – | Ki | 1.53 nM
CN(C)[C@H](CNC(=O)/C=C/c1cccc2ccccc12)Cc1ccc(O)cc1 | HTR1A | cell-free assay | – | – | – | Ki | 10000 nM
O=C1NC2(CC2)COc2ncc(F)cc2[C@H]2COCCN2c2ccn3ncc1c3n2 | – | – | Sprague-Dawley rat, male, serum | oral, 10 mg/kg/day, 4 weeks daily, end of recovery period | – | potassium | 4.6 ± 0.18 mmol/L
COc1cc2c(cc1O)C(CCc1ccc(Cl)cc1)N(C)CC2 (stereo not drawn) | HTR6 (Homo sapiens, UniProt P50406) | cell-free assay, radioligand | – | – | – | Ki | 1900 nM
CN(C)[C@H]1C[C@@]23CC[C@@]4(O2)C(=CC[C@]2(C)[C@@H](c5ccc6ccncc6c5)CC[C@H]24)C=C3[C@@H](O)[C@@H]1O | MAP2K6 (Homo sapiens, UniProt P52564) | ATP probe labelling, inhibitor, KiNativ profiling | – | 0.1 µM | – | inhibition | 6.4%

Some of these lines once more:
Structure (SMILES) | target or system | test | system | conditions | how to read | endpoint | result
O=C1NC2(CC2)COc2ncc(F)cc2[C@H]2COCCN2c2ccn3ncc1c3n2 | – | – | Sprague-Dawley rat, male, serum | oral, 10 mg/kg/day, 4 weeks daily, end of recovery period | – | potassium | 4.6 ± 0.18 mmol/L
COc1cc2c(cc1O)C(CCc1ccc(Cl)cc1)N(C)CC2 (stereo not drawn) | HTR6 (Homo sapiens, UniProt P50406) | cell-free assay, radioligand | – | – | – | Ki | 1900 nM
